Published values from different studies.
Numbers after ± are the reported error.

CC(C)(Sc1ccncc1-c1ccc(C#N)c2ccccc12)C(=O)O
terminal half-life (male, plasma; oral, 15 mg, moderate renal impairment, fasted): 20.6 h

COc1cc2c(=O)c(-c3ccc(O)cc3)coc2cc1O[C@@H]1O[C@H](CO)[C@@H](O)[C@H](O)[C@H]1O
terminal half-life (UHPLC; healthy volunteers, urine; oral): 3.31 ± 0.08 h

CCCOc1ccc([C@H]2CNC(=O)N2c2ccc3[nH]cnc3c2)cc1
terminal half-life (non-elderly adults, fasted, plasma; oral, 20 mg twice daily, day 11, oral solution, geometric mean): 2.36 h

N[C@@H](CC(=O)N1CCc2c(nc(C(F)(F)F)nc2C(F)(F)F)C1)CN1CC(F)(F)CCC1=O
terminal half-life (healthy Korean male volunteers; oral, 50 mg, day 7, mean, added: glimepiride): 10.4 h

NS(=O)(=O)OC[C@@H]1C[C@@H](n2ccc3c(N[C@H]4CCc5ccccc54)ncnc32)C[C@@H]1O
terminal half-life (population PK model; adult cancer patients, plasma; intravenous, typical patient): ~8 h

NCCCC[C@@H]1NC(=O)[C@@H](Cc2c[nH]c3ccccc23)NC(=O)[C@H](c2ccccc2)NC(=O)[C@@H]2C[C@@H](OC(=O)NCCN)CN2C(=O)[C@H](Cc2ccccc2)NC(=O)[C@H](Cc2ccc(OCc3ccccc3)cc2)NC1=O
terminal half-life (healthy male volunteers, plasma; subcutaneous, 1200 µg): 65.8 ± 69.5 h

CS(=O)(=O)n1cc2c(n1)CN([C@H]1CO[C@H](c3cc(F)ccc3F)[C@@H](N)C1)C2
terminal half-life (healthy Japanese men, plasma; oral, dose not given, single dose): > 100 h

O=C(c1cccnc1-c1ccncc1)N1CCC(O)(Cc2ccccc2)CC1
terminal half-life (healthy subjects, plasma; oral, 300 mg twice daily, day 1): 3.49 h

O=C1CCc2ccc(OCCCCN3CCN(c4cccc(Cl)c4Cl)CC3)cc2N1
terminal half-life (healthy Japanese men, CYP2D6 EM, plasma; oral, 3 mg aripiprazole single, added: paroxetine 20 mg/day): 111 ± 15.7 h

COc1cc2c(cc1OC)CN(CCc1ccc(NC(=O)c3cc(OC)c(OC)cc3NC(=O)c3cnc4ccccc4c3)cc1)CC2
terminal half-life (human, plasma; intravenous infusion, 4 mg/kg): 43 h

COc1cccc(N2CCN(C3=Nc4c(F)cccc4[C@H](CC(=O)O)N3c3cc(C(F)(F)F)ccc3OC)CC2)c1
terminal half-life (UHPLC-MS/MS; healthy women, plasma; intravenous infusion, 480 mg single dose, 60 min infusion, HPβCD formulation): 13 ± 4.1 h

O=C(Nc1ccc(OC(F)(F)F)cc1)N[C@H]1CC[C@H](Oc2ccc(C(=O)O)cc2)CC1
terminal half-life (horses, plasma; intravenous, 0.1 mg/kg): 13 ± 3 h

Repeated from above:
O=C1CCc2ccc(OCCCCN3CCN(c4cccc(Cl)c4Cl)CC3)cc2N1
terminal half-life (healthy Japanese men, CYP2D6 EM, plasma; oral, 3 mg aripiprazole single, added: paroxetine 20 mg/day): 111 ± 15.7 h
